Measured values of several laboratories.
Each numbered part is a random draw from the data of one study; scales do not carry over between parts.

Series 1 — method: EMSA with sequencing; form: double-stranded DNA, one strand shown; sample: in vitro; concentration: 10 and 20 nM; relative to: negative control set to 0; reading: higher = stronger binding
Target: Hepatocyte nuclear factor 3-alpha (Foxa1, Mus musculus, UniProt P35582, residues 1-468, full length assumed)
Setting: whole designed probe, mean of two concentrations, ends assumed
Shared flanks, not repeated: GTGAGCGGTGCCCATTGATGGGGAAC … TTTCACTGGGATCGTGGGGAC
Target sequence (chain): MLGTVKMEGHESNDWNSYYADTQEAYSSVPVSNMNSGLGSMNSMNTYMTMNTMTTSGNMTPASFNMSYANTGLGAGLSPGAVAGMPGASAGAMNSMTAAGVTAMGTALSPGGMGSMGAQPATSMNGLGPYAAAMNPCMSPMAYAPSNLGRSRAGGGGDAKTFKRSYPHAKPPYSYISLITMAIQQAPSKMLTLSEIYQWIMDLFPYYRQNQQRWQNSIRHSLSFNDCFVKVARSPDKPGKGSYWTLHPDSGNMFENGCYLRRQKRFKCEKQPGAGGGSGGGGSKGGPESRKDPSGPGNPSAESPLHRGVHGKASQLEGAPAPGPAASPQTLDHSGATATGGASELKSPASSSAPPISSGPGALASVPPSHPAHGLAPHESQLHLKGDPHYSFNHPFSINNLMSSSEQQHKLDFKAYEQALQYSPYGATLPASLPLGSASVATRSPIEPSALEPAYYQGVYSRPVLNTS
Oligonucleotide | normalised bound fraction
CTTGTTGTTCAACTTGGAGCAAATGCTCTGTTTATCATGTTGTCTTGAGAGGGGCCACAGCTAGGCATTCCAGCCCAGCAGTGTGGCCTTATGTAAACATGGGTGGTTGAAAGTGATGGGATAAGGAAGCCAAAACTACCAACAGAGATGAGATTTTTCTGTATTTTATTCTTCCTGAGCAGCAGAGCCCGTG | 0.505 ratio
CACTAGCCAAGCAAATGCTACCTTTCCTAAATTACGCCGTGGTATTGTGTACGACAGCAGCAGGGTTGCTATTTTAAAATGGGATTGCGTAAAATAAACATGTGCCCAGATGACACGTAGTACTAAGTTGATGATTAATTGATGCTCTGGTACGGCCTCGTGCTTTCCAGTGCTTCCATTTGTGTGACGATCC | 0.241 ratio
GACCTTCATATCAGCTCTGAAGTGACTAGTAAATTGGATTACCCCACTGGGCATATTTATAGCAGTATTTAATTTTAACTACACAGAATGTACCTGTTTACTCAGACCTGATTTTAATATCAGAGTATCTGTGGAAGGCTTAATACAAATCCTTTTAAGAACTCTATTGACAGATAGAATTTTCCAGCAGAAA | 0.253 ratio
ATCTTCCCCCTCTTCCTTGCCCCACCAGCTCACCTACGGGGGTTATTTGCACAAAGGAAAATAAATAAAGCCGGCATTCGTTAACCCTCTTCTGGCGCAAACTGCTGTTTGCTCTGGATGAATCATGGTCCTTTGGCGACGCCAGGCTCCGGGAGAGCAAAGCACCGTGTCAGGGCCATGATCCGGGGTGGCC | 0.369 ratio
TTGCAGGCTGCAGTGATGTCCTTCATATCACGTCATCTTAGTGCCACTTCATCTTTATTGGCATGTGTGGGAGGAACAAAACCCCAGTGGTATGCAATCTCCGTCATGGGGACTTGCTTCAAGCCATGGGAAGTTTCACGCAAAGCCAGTTTCTCAGTAGGGCAAATGTTGTGTAAAAGTACAAGAAGTTTGA | -0.0229 ratio
TTTACTTCTTATATTTCACTCTGGGTTGACCCTAGGGAACATAAAACCAGATTCTACTGATCTTCCCTTATCAGATGTTTGGTTTTCTCTAAGCAATCTTCTATCTGGGGAGCATGACAGGGTCATGACAGATTTCCCAGTGGGGACTGTGGAGACTGGCTGGAAGGCTATGAGTGAGTGAGCTGACATCCAC | 0.0335 ratio
GGAAGCTGAACTAGGCAGTGGGTCCCCAGGGATGGTGGGAAGTGACGAGGGCTCAGGGATCTGCCCACTTACTCTTTATTTGCAAACAGTATGTAATCTCACATGCAAGCTGTCACTGCCCTCAGGGCGCTGGCATGCTGCCACCCCAGCCCCTGGATCCTGGTGCTTGGGCGCCTTGGCTTTATAGCATTTG | 0.173 ratio
ATCCACGAACCTGGCCCTGTCTGGTAACCACAGTGAACCATCGCAAGATACAGCACTATGTGCCCAGTTGGGCTGGAATAATGACTCACATGTGTCAACACTGGCACATCCTCAGGGACACGGAAGTGTACTTGTTTTTGGAGAGGGACTAGACCTTCATCCTTGAGGTGAAGAAGATTTTCTCTCCAGGGTG | 0.108 ratio

Series 2 — method: Sort-seq; measured: YFP reporter; sample: E. coli; setting: PhoQ-PhoP variant library; added: 10 µM Mg2+; relative to: high Mg2+ state; reading: higher = stronger signaling
Substance: PhoQ, residues 284 288 289 292 302 303 GANMMA
target | fold induction
PhoP, residues 12 14 15 18 19 NFFVT (Escherichia coli, UniProt P23836) | 10.2
PhoP, residues 12 14 15 18 19 VGHWL (Escherichia coli, UniProt P23836) | 9.84
PhoP, residues 12 14 15 18 19 LHHYF (Escherichia coli, UniProt P23836) | 11.4
PhoP, residues 12 14 15 18 19 TPWTL (Escherichia coli, UniProt P23836) | 0.929

Series 3 — method: protein binding microarray; form: double-stranded DNA, one strand shown; sample: in vitro; concentration: not given; relative to: not given; reading: higher = stronger binding
Target: Histone acetyltransferase KAT6A, both winged helices, GST fusion (KAT6A, Homo sapiens, UniProt Q92794, residues 1-181)
Setting: 8-mer, flanks averaged, mean of 2 arrays, mostly near background
Residues (chain): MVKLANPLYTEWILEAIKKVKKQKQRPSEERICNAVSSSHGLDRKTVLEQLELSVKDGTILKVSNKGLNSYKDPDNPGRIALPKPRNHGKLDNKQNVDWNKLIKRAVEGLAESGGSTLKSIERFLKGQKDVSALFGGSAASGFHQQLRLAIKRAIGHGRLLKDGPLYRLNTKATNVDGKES
Oligonucleotide | E-score
GGCATCCA | -0.133
GTACCCGA | 0.0631
CTTGCTAA | -0.215
AACTATTG | -0.00724
GAGACTCC | -0.0294
GTCCTCCA | -0.0121
CTCGCGGA | 0.182
AGCTCATA | -0.00198
ATACACGG | 0.177
CTCACGAC | 0.00321
ACTGTCCA | -0.0981
CGCCGTTC | 0.288
ACAATTAC | -0.122

Series 4 — method: universal PBM; form: double-stranded DNA, one strand shown; sample: in vitro; concentration: 600 nM; reading: higher = stronger binding
Target: Sal-like protein 4, full length isoform A (SALL4, Homo sapiens, UniProt Q9UJQ4, residues 1-1053)
Sequence of UniProt Q9UJQ4 (whole entry, looked up): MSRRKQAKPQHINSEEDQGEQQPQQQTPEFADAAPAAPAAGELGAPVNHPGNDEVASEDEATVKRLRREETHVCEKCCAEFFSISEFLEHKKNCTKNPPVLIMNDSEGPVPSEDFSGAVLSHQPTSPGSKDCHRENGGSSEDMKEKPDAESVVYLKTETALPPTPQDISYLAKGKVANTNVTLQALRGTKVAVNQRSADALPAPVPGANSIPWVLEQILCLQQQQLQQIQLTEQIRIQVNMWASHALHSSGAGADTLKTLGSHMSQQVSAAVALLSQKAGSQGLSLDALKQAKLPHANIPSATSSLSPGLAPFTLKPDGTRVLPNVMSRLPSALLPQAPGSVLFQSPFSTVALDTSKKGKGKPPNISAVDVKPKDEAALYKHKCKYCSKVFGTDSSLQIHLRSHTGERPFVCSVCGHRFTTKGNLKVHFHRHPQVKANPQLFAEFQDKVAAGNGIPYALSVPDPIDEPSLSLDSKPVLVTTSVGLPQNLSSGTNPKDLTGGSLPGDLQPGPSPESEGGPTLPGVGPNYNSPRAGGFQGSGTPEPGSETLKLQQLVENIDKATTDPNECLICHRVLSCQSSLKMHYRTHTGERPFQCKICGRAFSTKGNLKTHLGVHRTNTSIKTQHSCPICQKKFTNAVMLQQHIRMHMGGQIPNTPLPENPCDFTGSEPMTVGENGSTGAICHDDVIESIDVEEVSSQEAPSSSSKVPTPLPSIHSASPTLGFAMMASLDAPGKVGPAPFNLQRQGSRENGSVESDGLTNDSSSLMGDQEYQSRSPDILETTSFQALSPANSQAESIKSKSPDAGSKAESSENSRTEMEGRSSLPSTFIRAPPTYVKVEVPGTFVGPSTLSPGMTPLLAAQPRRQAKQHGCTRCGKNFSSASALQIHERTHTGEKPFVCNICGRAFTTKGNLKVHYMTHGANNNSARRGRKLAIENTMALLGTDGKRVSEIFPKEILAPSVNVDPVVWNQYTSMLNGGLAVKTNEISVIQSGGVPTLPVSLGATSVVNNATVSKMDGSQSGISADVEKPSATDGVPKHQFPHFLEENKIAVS
Setting: 8-mer, flanks averaged, mean of replicates
Oligonucleotide | E-score
CCGTCCGA | -0.253
ATGGGTGA | -0.099
GCTCCCCA | -0.243
AAGCATCA | 0.0453
GCTCTGAC | -0.173
CGACCTAG | -0.00714
GAGATCTA | 0.0704
CTCCGACA | -0.0576
AAGCCGGT | -0.152
AGTTGACC | -0.202
ACTTTTAA | 0.234

Some of these lines once more (series 3):
Oligonucleotide | E-score
CTCGCGGA | 0.182
AGCTCATA | -0.00198
ATACACGG | 0.177
CTCACGAC | 0.00321
ACTGTCCA | -0.0981
